Assay results of several laboratories.
Numbered parts are unrelated; each lists some results of a single study.

Block 1
Target: RING finger protein unkempt homolog, zinc fingers 1-6, GST-SBP tag (UNK, Homo sapiens, UniProt Q9C0B0, residues 30-357)
Chain of UniProt Q9C0B0 (30-357, looked up): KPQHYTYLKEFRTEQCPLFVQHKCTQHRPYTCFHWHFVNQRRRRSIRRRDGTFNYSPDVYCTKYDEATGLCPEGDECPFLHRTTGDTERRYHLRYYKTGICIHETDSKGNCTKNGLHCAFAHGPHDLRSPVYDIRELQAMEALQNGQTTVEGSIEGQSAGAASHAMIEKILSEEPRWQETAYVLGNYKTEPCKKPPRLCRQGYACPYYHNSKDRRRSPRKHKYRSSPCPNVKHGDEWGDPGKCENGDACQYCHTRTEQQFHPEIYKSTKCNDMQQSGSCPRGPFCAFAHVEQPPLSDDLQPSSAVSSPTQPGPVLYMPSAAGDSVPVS
Method: RNA Bind-n-Seq
Molecule type: RNA
Sample: in vitro
Concentration: not given
Setting: RNA with constant flanks, human and mouse sites, ends assumed
Baseline: input RNA pool
Direction: higher = stronger binding
Measurement: bound/input enrichment
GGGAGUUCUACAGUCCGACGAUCAAAAGAAGCCAAUUCAACUUUGUUGUGAUUUGAUUUUUUUAAAAACUCUUAUACAAAACUGAUCUAAUUCUUCACUCCUGCUCCAAGGGCUGGGCUGUGGGUGGGGACUGGGGUUUCGGGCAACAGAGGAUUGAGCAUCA: 0.308 ratio
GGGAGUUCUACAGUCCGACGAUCAGCAAAAAUCAAAUUAAAGUAGAUCUUGUAGAUGAGAAUUUUACAGAAUUAAGAGGAGAAAUAGCAGGACCUCCAGACACACCGUAUGAAGGUGGAAGAUAUCAACUAGAGAUAAAAAUACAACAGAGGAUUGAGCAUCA: 3.53 ratio
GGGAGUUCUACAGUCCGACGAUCUGCUGCAGGAAAAGAGAUCAUAUGGCACGGGCGGACAAAAGAAGAACCAGCUCAUUAUUGUAGUAUUUGUGAGGUGGAGGUUUUUGAUCUGCUUUUUGUCACUAAUGAGAGUAAUUCUCGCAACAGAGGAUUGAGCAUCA: 0.202 ratio
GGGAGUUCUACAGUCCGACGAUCAACCGUUAGUCUUUCCGACAGACGUGGCCUUUUUCAUCUAAGGGCUCAACCAGUCUAAGCAUUUCUUGUAGUUAGAGAGUGAGGUGUUCAGUGGAAGUGUGUCUCUCACAGUAUCAGGACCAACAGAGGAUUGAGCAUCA: 0.614 ratio
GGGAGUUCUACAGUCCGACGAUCAAACCAACAAAUCCAGCAGCCCAGAAGGCUCUUACUACACCUACUCAUUAUAAACUGACACCCCGCCCUGCCACUAGAGUCCGGCCAAAGGCUUUACAAACAACAGGCACAGCCAAGUCACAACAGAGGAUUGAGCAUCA: 0.581 ratio
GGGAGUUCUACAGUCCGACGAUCCAGCCUGGGGACACAGCCAAGGCCGUGGUAGCCCAAGCUGUCCGUCAUCUCCCACAGUCUGUCAGGAUUUACAUCAGAGCCGCAGAGCUGGAAACGGACAUUCGUGCAAAGAAGCGGGUUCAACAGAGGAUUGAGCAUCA: 0.179 ratio
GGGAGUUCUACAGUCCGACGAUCAAUAUGAGGGCCAGGCAGCAGGCCAAGCGAGAAGCUUGCAGUGAUGCCAUGUCUGGAGCUAUAGAUACAAAUAAGAAAGAGUCCUGGUUCUUGCCUGAAGAGAAAGCUAAUGUUUUUUCACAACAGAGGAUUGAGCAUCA: 0.861 ratio
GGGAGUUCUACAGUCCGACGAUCAAAAGGAAAGAGCCAAAUAAAAGCAUCAAGCAUUGCACAGUUCUCUCCAAUAACAUAGAUCAUCUCUUACUGAAUUUAACACUGUCUGAUAUCAUGGUCUCCCUGGCAAAUGCGUCAACUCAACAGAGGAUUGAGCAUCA: 0.13 ratio

Block 2
Target: Max-binding protein MNT, bHLH-zipper, MAX partner unstated (MNT, Homo sapiens, UniProt Q99583, residues 220-300)
Method: protein-binding microarray
Molecule type: double-stranded DNA, one strand shown
Sample: in vitro
Concentration: not given
Setting: k-mer, scored over probes, only values ≥0.25
Direction: higher = stronger binding
Measurement: E-score
Construct (chain): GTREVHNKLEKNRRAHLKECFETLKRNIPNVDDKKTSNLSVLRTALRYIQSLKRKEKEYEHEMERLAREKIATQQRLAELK
CAGGTGCG: 0.261
ACGAGGGC: 0.333
CGCCCACG: 0.374
ATGGGGCA: 0.276
AAGCACGT: 0.446

Block 3
Target: Centromere-binding protein 1, full length, His-tagged (CBF1, Saccharomyces cerevisiae, UniProt P17106, residues 1-351)
Chain of UniProt P17106 (whole entry, looked up): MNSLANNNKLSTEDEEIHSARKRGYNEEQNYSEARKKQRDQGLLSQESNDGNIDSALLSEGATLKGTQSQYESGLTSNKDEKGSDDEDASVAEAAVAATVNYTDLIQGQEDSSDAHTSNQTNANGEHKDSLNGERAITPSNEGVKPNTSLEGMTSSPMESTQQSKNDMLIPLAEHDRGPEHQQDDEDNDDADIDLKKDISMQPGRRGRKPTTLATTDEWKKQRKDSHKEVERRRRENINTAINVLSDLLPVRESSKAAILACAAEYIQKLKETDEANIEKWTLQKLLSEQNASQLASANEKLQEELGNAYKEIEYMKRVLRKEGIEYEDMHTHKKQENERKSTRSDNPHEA
Method: competition protein-binding microarray
Molecule type: double-stranded DNA, one strand shown
Sample: in vitro
Concentration: 2 µM
Setting: whole 60-bp probe, lowest competitor level
With: Pho4 competitor, 0.05 µM
Direction: higher = stronger binding
Measurement: fluorescence intensity
AAAAAAAAAAAAAGGTATGTGCGGGAAGAGAATCTAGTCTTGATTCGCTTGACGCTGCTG: 166 a.u.
GCCTCTGTACAATGCCACGTTGATACGCCCAGCAGCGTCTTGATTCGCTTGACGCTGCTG: 101 a.u.
ACAAGCGGTTTTTTTTTCGTGGGTAAACATTATTTGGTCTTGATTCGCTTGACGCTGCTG: 84.4 a.u.
TGTTCTCGACGACAACTCGTGTCGGTTCCATGCTATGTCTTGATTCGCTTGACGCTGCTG: 87.6 a.u.
GATCTGGTCGTACGGCCCGTGCTTTCAGAATTGGTGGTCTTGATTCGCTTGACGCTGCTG: 94.6 a.u.
GAAGAACCTTTACTACATGTGCTGCCAACCAAACCAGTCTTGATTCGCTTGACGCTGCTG: 120 a.u.
CTAACGAAGGTTTTTCACGTGGCTTACAAGCCAAGTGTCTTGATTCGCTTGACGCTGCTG: 938 a.u.

Single results of other studies
PhoQ, residues 284 288 289 292 302 303 AGCYAI
fold induction (PhoP, residues 12 14 15 18 19 LYHSL (Escherichia coli, UniProt P23836); Sort-seq, measured: YFP reporter; E. coli; PhoQ-PhoP variant library, with: 10 µM Mg2+; baseline: high Mg2+ state, higher = stronger signaling): 11.3

For quick reference, copied from above (block 1):
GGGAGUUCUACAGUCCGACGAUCUGCUGCAGGAAAAGAGAUCAUAUGGCACGGGCGGACAAAAGAAGAACCAGCUCAUUAUUGUAGUAUUUGUGAGGUGGAGGUUUUUGAUCUGCUUUUUGUCACUAAUGAGAGUAAUUCUCGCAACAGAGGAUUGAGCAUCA: 0.202 ratio
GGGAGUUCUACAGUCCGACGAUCAACCGUUAGUCUUUCCGACAGACGUGGCCUUUUUCAUCUAAGGGCUCAACCAGUCUAAGCAUUUCUUGUAGUUAGAGAGUGAGGUGUUCAGUGGAAGUGUGUCUCUCACAGUAUCAGGACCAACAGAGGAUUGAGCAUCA: 0.614 ratio
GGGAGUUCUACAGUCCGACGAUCAAACCAACAAAUCCAGCAGCCCAGAAGGCUCUUACUACACCUACUCAUUAUAAACUGACACCCCGCCCUGCCACUAGAGUCCGGCCAAAGGCUUUACAAACAACAGGCACAGCCAAGUCACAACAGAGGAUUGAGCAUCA: 0.581 ratio
